{"data": "Results of several laboratories", "note": "Every numbered part comes from another study and shows a few of its results, in no order. Changes are numbered by the printed parent chain."}
{"data": "Series 1", "target": "CCND3, cyclin fold, Cln2 fusion (human)", "method": "yeast growth competition, sequencing", "medium": "yeast", "setting": "weak parent motif", "baseline": "not given", "direction": "higher = stronger binding", "starting sequence": "SAMHD1 docking peptide (human); ASKSRVQLFKDDP; partner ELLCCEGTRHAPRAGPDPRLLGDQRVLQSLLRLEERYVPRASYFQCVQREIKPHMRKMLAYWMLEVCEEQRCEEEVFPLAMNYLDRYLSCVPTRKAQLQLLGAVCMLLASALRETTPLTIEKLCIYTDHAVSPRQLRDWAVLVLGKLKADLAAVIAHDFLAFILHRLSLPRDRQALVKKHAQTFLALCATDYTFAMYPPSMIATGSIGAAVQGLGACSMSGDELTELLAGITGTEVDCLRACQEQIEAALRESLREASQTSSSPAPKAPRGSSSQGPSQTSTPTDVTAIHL"}
{"Change": "L8P", "normalised enrichment score": -0.0905}
{"Change": "S4M", "normalised enrichment score": 0.055}
{"Change": "D11I", "normalised enrichment score": 0.227}
{"Change": "K10P", "normalised enrichment score": 0.0601}
{"Change": "D11P", "normalised enrichment score": 0.274}
{"Change": "V6S", "normalised enrichment score": -0.511}
{"Change": "D11Q", "normalised enrichment score": -0.0914}
{"Change": "F9M", "normalised enrichment score": 0.209}
{"Change": "K3G", "normalised enrichment score": 0.025}
{"Change": "S2L", "normalised enrichment score": 0.0796}
{"Change": "D12R", "normalised enrichment score": 0.0549}
{"Change": "V6M", "normalised enrichment score": -0.0549}
{"Change": "S2V", "normalised enrichment score": 0.241}
{"Change": "D12Q", "normalised enrichment score": 0.0896}
{"Change": "D11N", "normalised enrichment score": 0.212}
{"Change": "L8D", "normalised enrichment score": 0.00425}
{"Change": "S2C", "normalised enrichment score": -0.0569}
{"Change": "V6H", "normalised enrichment score": -0.0438}
{"Change": "S2K", "normalised enrichment score": 0.104}
{"Change": "S4C", "normalised enrichment score": 0.288}
{"Change": "D11T", "normalised enrichment score": 0.695}
{"data": "Series 2", "target": "RING finger protein unkempt homolog, zinc fingers 1-6, GST-SBP tag (UNK, Homo sapiens, UniProt Q9C0B0, residues 30-357)", "method": "RNA Bind-n-Seq", "form": "RNA", "medium": "in vitro", "tested at": "not given", "setting": "RNA with constant flanks, human-mouse chimeric sites, ends assumed", "baseline": "input RNA pool", "direction": "higher = stronger binding", "all sequences stand within": "GGGAGUUCUACAGUCCGACGAUC … CAACAGAGGAUUGAGCAUCA", "Construct (chain)": "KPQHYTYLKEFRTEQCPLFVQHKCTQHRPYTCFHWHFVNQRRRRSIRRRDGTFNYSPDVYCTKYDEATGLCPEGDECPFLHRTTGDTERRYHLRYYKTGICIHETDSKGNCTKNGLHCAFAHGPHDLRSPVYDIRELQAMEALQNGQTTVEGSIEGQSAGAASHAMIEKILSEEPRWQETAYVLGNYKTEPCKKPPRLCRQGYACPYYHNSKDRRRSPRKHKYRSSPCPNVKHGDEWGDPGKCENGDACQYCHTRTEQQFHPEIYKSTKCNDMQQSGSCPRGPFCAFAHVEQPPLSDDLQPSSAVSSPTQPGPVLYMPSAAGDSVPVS"}
{"Oligonucleotide": "GCACUUCUCAAAUACUGGCCAAAGACUCACAGUCCAAAAGAAGUAAUGUUCUUAAAUGAAUUAGAAGAAAUUUUAGAUGUCAUUGAACCAUCAGAAUUUGUGAAGAUCAUGGAGCCUCUU", "bound/input enrichment [ratio]": 0.22}
{"Oligonucleotide": "AAAGAGUGGAUAGAGUGUGCACACGGGAUCGGUUAUACCCGGGCGAAAAAGGAGUGCAAGAUAGAGUUCGAUGACUUCGAAGAGUGCUUGCUUCGGCACAAAACGAUGAGGCGAAUGCAU", "bound/input enrichment [ratio]": 0.424}
{"Oligonucleotide": "CACUCGAGGGCUGCCGUUUUCUGUUUCUCCCUGGGCUGCGGAAAGCCAGGCGGUUUUAUCUAGCUUAUACAAGGCUGCUGGUGUUCCCUCUUUUUUUCCACGAGGGUGUUUUUGGCUGCA", "bound/input enrichment [ratio]": 1.46}
{"Oligonucleotide": "AUUCCGAUUAUGGACACCGGUGAAAACCCAGAGGUGCCCUUCCCCCGGGACAUGAUUGACUUAGAGGCCAAUUUUGAGAAGAUUGAAAAUGAACUGAAGGAAAUCAACACUAACCAGGAA", "bound/input enrichment [ratio]": 0.0909}
{"Oligonucleotide": "CAGUCCCCGUGUCCCAGUGCAGGACGAUGUGAACAAAAACUCAAAGCGGACCCUCUAUUGUAGUUCUUGAUUCUCGAAAUGUGCUAUUGUUUUUAAACUUUUUUUUUUUUUUUUUAAAGA", "bound/input enrichment [ratio]": 0.59}
{"Oligonucleotide": "GGAAGCACAAUGAUGGAGAUUGAUGGUGACAAAGGCAAACAAGGCGGGCCCACCUACUACAUAGACACCAAUGCCCUCCGCGUGCCCAGGGAGAACAUGGAGGCCAUCUCACCACUCAAG", "bound/input enrichment [ratio]": 0.203}
{"data": "Series 3", "target": "Sal-like protein 4, full length isoform A (SALL4, Homo sapiens, UniProt Q9UJQ4, residues 1-1053)", "method": "universal PBM", "form": "double-stranded DNA, one strand shown", "medium": "in vitro", "tested at": "600 nM", "setting": "8-mer, flanks averaged, mean of replicates", "direction": "higher = stronger binding", "sequence of UniProt Q9UJQ4 (whole entry, looked up)": "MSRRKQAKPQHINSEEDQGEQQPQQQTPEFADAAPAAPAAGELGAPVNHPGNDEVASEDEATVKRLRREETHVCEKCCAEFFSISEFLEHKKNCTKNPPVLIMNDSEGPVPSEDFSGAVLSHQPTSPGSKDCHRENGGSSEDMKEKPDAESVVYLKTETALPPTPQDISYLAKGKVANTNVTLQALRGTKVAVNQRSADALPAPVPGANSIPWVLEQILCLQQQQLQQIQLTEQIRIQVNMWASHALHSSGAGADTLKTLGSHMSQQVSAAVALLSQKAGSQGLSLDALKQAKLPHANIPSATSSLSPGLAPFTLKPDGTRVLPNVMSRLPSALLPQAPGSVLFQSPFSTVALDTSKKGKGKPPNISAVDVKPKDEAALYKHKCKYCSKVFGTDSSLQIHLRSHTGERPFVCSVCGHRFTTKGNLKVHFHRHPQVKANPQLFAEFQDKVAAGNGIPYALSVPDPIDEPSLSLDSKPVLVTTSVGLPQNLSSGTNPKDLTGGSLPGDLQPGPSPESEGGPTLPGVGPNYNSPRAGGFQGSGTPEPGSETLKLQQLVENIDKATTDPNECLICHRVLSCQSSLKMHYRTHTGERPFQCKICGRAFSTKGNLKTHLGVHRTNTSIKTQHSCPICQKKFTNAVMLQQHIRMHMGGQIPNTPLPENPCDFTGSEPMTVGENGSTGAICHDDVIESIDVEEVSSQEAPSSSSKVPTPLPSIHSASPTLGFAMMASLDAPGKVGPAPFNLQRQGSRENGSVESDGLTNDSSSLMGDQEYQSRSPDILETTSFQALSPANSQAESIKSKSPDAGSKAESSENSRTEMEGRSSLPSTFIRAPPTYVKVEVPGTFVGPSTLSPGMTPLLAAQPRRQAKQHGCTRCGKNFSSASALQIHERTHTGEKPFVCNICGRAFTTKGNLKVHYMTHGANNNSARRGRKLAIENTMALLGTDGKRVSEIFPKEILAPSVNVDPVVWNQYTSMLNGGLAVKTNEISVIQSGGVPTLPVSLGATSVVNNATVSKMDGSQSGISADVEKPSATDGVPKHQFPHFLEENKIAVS"}
{"Oligonucleotide": "CACGGCAC", "E-score": -0.175}
{"Oligonucleotide": "GCTCAATA", "E-score": 0.111}
{"Oligonucleotide": "ACGTCGTG", "E-score": -0.00771}
{"Oligonucleotide": "AATAGAAG", "E-score": 0.151}
{"Oligonucleotide": "AAGTTGGC", "E-score": 0.00245}
{"Oligonucleotide": "ACCCGTGG", "E-score": -0.302}
{"Oligonucleotide": "CCTAAGAC", "E-score": -0.146}
{"Oligonucleotide": "AATGCACG", "E-score": 0.075}
{"Oligonucleotide": "ATAGGTTG", "E-score": -0.012}
{"Oligonucleotide": "ACCATTGC", "E-score": 0.0911}
{"Oligonucleotide": "GACTGGGA", "E-score": -0.183}
{"Oligonucleotide": "ACCTGGCG", "E-score": -0.275}
{"Oligonucleotide": "ATGCCCTC", "E-score": -0.0656}
{"Oligonucleotide": "GCATCTGA", "E-score": -0.173}
{"Oligonucleotide": "CTCGGGTA", "E-score": -0.099}
{"Oligonucleotide": "CTTTGTAC", "E-score": 0.0886}
{"Oligonucleotide": "CCATCAGC", "E-score": -0.155}
{"Oligonucleotide": "ATTTCAGG", "E-score": 0.076}
{"data": "Series 4", "target": "RNA binding protein fox-1 homolog 2, RRM domain, GST-SBP tag (RBFOX2, Homo sapiens, UniProt O43251-10, residues 100-194)", "method": "RNA Bind-n-Seq", "form": "RNA", "medium": "in vitro", "tested at": "365 nM", "setting": "natural RNA segment, single round, ends assumed", "baseline": "no-protein control", "direction": "higher = stronger binding", "all sequences stand within": "GGGAGUUCUACAGUCCGACGAUC … UGGAAUUCUCGGGUGCCAA"}
{"Oligonucleotide": "UGAAAAAAUGGAGAGCAGUGUAAUAGACACACACUACAUCGGAAGAACUGACUUCUGAAACGAAGAGAAAAGCACCUAUGGAUCCCACUCCUUCCCAUCGCUUACCUGUU", "RBNS enrichment (R)": 0.606}
{"Oligonucleotide": "GUCCAGAUGUUUGCAGGUGAAUUCCUCUGCUUGACAUCCUCCCUGUCACUUUGGACCCUAUGGGAGUGGGCAUCUCCACGCACCUGUGUAUGUGAAAGUCAUUUUACAUU", "RBNS enrichment (R)": 0.529}
{"Oligonucleotide": "GUGUGUUGCUUCUUUCUCUCCUAAAGCAAACCUCUGCCUUUUCUCUAUGCUGUUCGUGUUGGGUUUUGUUCAUGUCAGAUACGUGGUUCAUUCUCAGGACCAAGGGAAAC", "RBNS enrichment (R)": 0.486}
{"Oligonucleotide": "CAAGUGCGAUGGUGUUGCCUUUCCAUGGGAUAUUGCAUUUUCUUACACUACCCGAGAUGUCCAGACGUGCUUGGUAGGAGGCUACUCCCUAGGUGCUGCCUUUCUAAGUU", "RBNS enrichment (R)": 4.05}
{"Oligonucleotide": "ACAAUCUGUAGGCUUUAAGAAUUGCUUUUAAACCUUUUUAAGUGAUAAACUCUUGAAGUGGUCUUAAGGUUAGCAAAUAAUUGUCUGUAUUAAACAUGGCGUUAUUUAAG", "RBNS enrichment (R)": 0.374}
{"Oligonucleotide": "UACUGAUACAGUUAUUCUUUUUUUUAAAGAACAUUGUUUUAUAAAGAACGUGAUUUCCAGUGAUCUCUGGAAGCGCUAAAGCUAAAAUUUCUGUUCUUGAAACACUUCAG", "RBNS enrichment (R)": 0.439}
{"Oligonucleotide": "GGAGGAGUUUCCUUGCUGAGAUUUCAAAUAGUCCUCCCCACCUCAACUGUCACCACUGCUAAGGGACUCUAUCCAUUGAGCACAUUUUCCUAAGGCCCUGCUGUCUGCCG", "RBNS enrichment (R)": 0.416}
{"Oligonucleotide": "UAUUACCCUUUCACUCUUCUCACAGGACAUGUACCCAAAUAUGGUACUUAUUUAUGUAGUCACUGUGUUUCUGGAAUUUUAUGUUAAUAAAAUUUUAAUUUAAAAAGGCU", "RBNS enrichment (R)": 0.962}
{"data": "Further values, each from its own experiment"}
{"Substance": "PhoQ, residues 284 288 289 292 302 303 SSTMSV", "target": "PhoP, residues 12 14 15 18 19 AQCLL (Escherichia coli, UniProt P23836)", "assay": "Sort-seq, refers to: YFP reporter", "test system": "E. coli", "setting": "PhoQ-PhoP variant library, with: 10 µM Mg2+", "how to read": "baseline: high Mg2+ state, higher = stronger signaling", "endpoint": "fold induction", "value": 6.46}
{"note": "Repeated from above (series 3):"}
{"Oligonucleotide": "CACGGCAC", "E-score": -0.175}
{"Oligonucleotide": "CTCGGGTA", "E-score": -0.099}
{"Oligonucleotide": "GACTGGGA", "E-score": -0.183}
{"Oligonucleotide": "ACCATTGC", "E-score": 0.0911}
{"Oligonucleotide": "AAGTTGGC", "E-score": 0.00245}
